{"data": "Measured values of several laboratories", "note": "Several values in a cell are separate wells, animals, samples, runs or records. ± marks the error that the study gave."}
{"Substance": "Cc1ccc(NC(=O)c2ccc(CN3CCN(C)CC3)cc2)cc1Nc1nccc(-c2cncc(-c3oncc3C)c2)n1", "system": "older healthy human adults, plasma", "conditions": "oral, 12.5 mg single dose, fed, mean", "quantity": "AUC(0-inf)", "result": "9470 ng·h/mL"}
{"Substance": "C=CC(=C)CCC1(C)C(C)CC(O)C23C(=CC(OC(=O)/C=C/C=C/CCCCC)CC12)C(OC(C)=O)OC3OC(C)=O (centres unmarked)", "assay": "haemolysis", "conditions": "20 µM", "quantity": "haemolysis", "result": "2%"}
{"Substance": "CC(C)[C@H](N)C(=O)OCC1(CO)C/C1=C/n1cnc2c(=O)[nH]c(N)nc21.Cl (mixture of isomers)", "assay": "item: prodrug", "system": "Swiss-Webster mouse (male), plasma", "conditions": "intravenous, 24.6 mg/kg, one-compartment model", "quantity": "C0", "result": "263 ng/mL"}
{"Substance": "Cc1nc2cccc(OCC(C)(C)C(=O)NC(C)C)c2c(N)c1C(=O)O", "system": "female Sprague-Dawley rat, plasma", "conditions": "oral gavage, 30 mg/kg, day 7", "quantity": "half-life", "result": "1.39 h"}
{"Substance": "CC(C)NC[C@@H](C(=O)N1CCN(c2ncnc3c2[C@H](C)C[C@H]3O)CC1)c1ccc(Cl)cc1", "system": "human, normal hepatic function, plasma", "conditions": "oral, 100 mg single dose, reference group versus Moderate", "how to read": "baseline: NCI classification", "quantity": "AUC(0-∞)", "result": "304 ng·h/mL"}
{"Substance": "CCN(CC)Cc1cc(Nc2ccnc3cc(Cl)ccc23)ccc1O", "system": "Wistar rat, male, plasma", "conditions": "oral, 60 mg/kg, with: myricetin 5 mg/kg i.v. pretreatment", "quantity": "Vd/F", "result": "33.9 ± 11.1 L/kg"}
{"Substance": "CCOc1ccc(Cc2cc([C@@H]3S[C@H](CO)[C@@H](O)[C@H](O)[C@H]3O)c(OC)cc2C)cc1", "system": "human, plasma", "conditions": "oral, 5 mg/day, day 7, multiple dose before breakfast", "quantity": "elimination rate constant", "result": "1.86e-05 ± 3.31e-06 s⁻¹"}
{"Substance": "C=CC(=O)Nc1cc(Nc2ncc(C(=O)OC(C)C)c(-c3cn(C)c4ccccc34)n2)c(OC)cc1N(C)CCN(C)C", "system": "human, fasted", "conditions": "oral, 40 mg single dose, geometric mean", "quantity": "AUC(0-t)", "result": "155 ng·h/mL"}
{"Substance": "liraglutide", "assay": "ELISA", "system": "human plasma", "conditions": "10 nM, time not given", "how to read": "baseline: target concentration", "quantity": "recovery", "result": "59%"}
{"Substance": "CN(C)CCCC1(c2ccc(F)cc2)OCc2cc(C#N)ccc21 (racemic)", "system": "CD-1 mouse, pregnant E14 and E18, fetal and maternal serum", "conditions": "intraperitoneal, 20 mg/kg maternal", "quantity": "time fetal exceeds maternal", "result": "2 h"}
{"Substance": "N[C@@H](CCC(=O)O)C(=O)O", "system": "octanol/phosphate buffer", "conditions": "pH 7.0, N-4-nitrobenzoyl amino acid derivatives", "how to read": "baseline: glycine derivative", "quantity": "Π (relative logD)", "result": "-1.85 ± 0.4"}
{"Substance": "C=CC(N)CCC(=O)O (centres unmarked)", "system": "male Sprague-Dawley rat, plasma", "conditions": "oral, 1.0 mg/kg, formulation 1", "quantity": "median Tmax", "result": "0.25 h"}
{"Substance": "CS(=O)(=O)OC[C@H](O)[C@@H](O)COS(C)(=O)=O", "system": "Wistar rat, male, red blood cells and plasma", "conditions": "intraperitoneal, 500 mg/kg, 4 h", "quantity": "RBC/plasma partition coefficient", "result": "0.73 and 0.87 and 0.84"}
{"Substance": "CN[C@@H]1[C@H](O)[C@H](NC)[C@H]2O[C@]3(O)[C@H](O[C@@H]2[C@H]1O)O[C@H](C)C[C@H]3NC(=O)Cc1cc(Cl)ccn1", "assay": "glutathione conjugation", "system": "human liver S9", "conditions": "100 µM, 2 h, pH 7.4, with: glutathione 0.2 mM", "quantity": "parent remaining", "result": "98.7%"}
{"Substance": "CCc1oc2cc(OC)ccc2c1C(=O)c1cc(Br)c(O)c(Br)c1", "system": "Sprague-Dawley rat, liver microsomes", "conditions": "1.0 µM, pH 7.4, 37 °C, with: NADPH 1.0 mM", "quantity": "intrinsic clearance", "result": "118 ± 8.7 µL/min/mg"}
{"Substance": "CN(C)C(=O)c1cc2cnc(Nc3ccc(N4CCNCC4)cn3)nc2n1C1CCCC1", "system": "human, tumour core", "conditions": "oral, 600 mg daily for 14 days", "quantity": "unbound concentration", "result": "1.36 nmol/g"}
{"Substance": "COc1cccc(N2CCN(C3=Nc4c(F)cccc4[C@H](CC(=O)O)N3c3cc(C(F)(F)F)ccc3OC)CC2)c1", "assay": "UHPLC-MS/MS", "system": "healthy women, plasma", "conditions": "intravenous infusion, 960 mg single dose, 60 min infusion, HPβCD formulation", "quantity": "elimination rate constant", "result": "1.63e-05 ± 5.1e-06 s⁻¹"}
{"Substance": "CC1=C2C[C@H]3[C@@H](CC[C@@H]4C[C@H](NS(C)(=O)=O)CC[C@@]43C)[C@@H]2CC[C@@]2(C1)O[C@@H]1C[C@H](C)CN[C@H]1[C@H]2C", "system": "patients, plasma", "conditions": "oral, 210 mg daily, day 22, cycle 1", "quantity": "AUC(0-24)", "result": "11300 ng·h/mL"}
{"Substance": "O=C1Nc2ccc(F)cc2C(=O)CCc2ccccc21", "assay": "nephelometry", "system": "aqueous buffer", "conditions": "30 min, pH 6.5", "quantity": "kinetic solubility", "result": "> 100 µg/mL"}
{"Substance": "CCCC[C@H](NC(C)=O)C(=O)N[C@H]1CCC(=O)NC[C@@H](C(=O)N[C@@H](Cc2c[nH]c3ccccc23)C(N)=O)NC(=O)[C@H](CCCNC(=N)N)NC(=O)[C@@H](Cc2ccccc2)NC(=O)[C@H](Cc2c[nH]cn2)NC1=O", "system": "beagle dog, male, plasma", "conditions": "subcutaneous, 1.5 mg/kg daily, day 14", "quantity": "AUC(0-last)", "result": "239 ng·h/mL"}
{"Substance": "O=C1N=C(N2CCOCC2)CN1c1ccc(Cl)cc1", "system": "beagle dog, both sexes, plasma", "conditions": "oral, 30 mg/kg, tablets, fed, day 0", "quantity": "AUC(0-inf)", "result": "88800 ng·h/mL"}
{"Substance": "Cn1c(=O)cc(N2CCC[C@@H](N)C2)n(Cc2ccccc2C#N)c1=O", "system": "male ICR mouse, liver", "conditions": "oral, 3 mg/kg, 24 h", "quantity": "AUC", "result": "23900 ng·h/mL"}
{"Substance": "CCC(CC)COC(=O)[C@H](C)N[P@](=O)(OC[C@H]1O[C@@](C#N)(c2ccc3c(N)ncnn23)[C@H](O)[C@@H]1O)Oc1ccccc1", "system": "20% w/w aqueous SBECD", "conditions": "24 h, pH 1.9, 25 °C, SBECD source 5", "quantity": "equilibrium solubility", "result": "8230 µg/mL"}
{"Substance": "teicoplanin", "system": "human, CrCl at least 60 mL/min, serum", "conditions": "intravenous, 400 mg q12h loading, 400 mg/day, day 4", "quantity": "trough concentration", "result": "18.1 ± 6.37 mg/L"}
{"Substance": "COc1ccc(-n2nc(C(N)=O)c3c2C(=O)N(c2ccc(N4CCCCC4=O)cc2)CC3)cc1", "system": "healthy human, plasma", "conditions": "oral, 10 mg, after 3-day washout", "quantity": "predose plasma concentration", "result": "≤ 2.98 ng/mL"}
{"Substance": "CO[C@H]1C[C@@H]2CC[C@@H](C)[C@@](O)(O2)C(=O)C(=O)N2CCCC[C@H]2C(=O)O[C@H]([C@H](C)C[C@@H]2CC[C@@H](OCCO)[C@H](OC)C2)CC(=O)[C@H](C)/C=C(\\C)[C@@H](O)[C@@H](OC)C(=O)[C@H](C)C[C@H](C)/C=C/C=C/C=C/1C", "system": "healthy human adults, blood", "conditions": "with: ritonavir-containing 3D regimen", "how to read": "baseline: with over without regimen", "quantity": "C12 ratio", "result": 16.1}
{"Substance": "CCOC(=O)c1cn(CC)c2cc(N3CCC(C)CC3)c(F)cc2c1=O", "system": "human liver microsomes", "conditions": "1 µM", "quantity": "CLint", "result": "205 µL/min/mg"}
{"Substance": "Cn1c(-c2ccc(C(N)=O)cc2F)nnc1C(C)(C)Oc1c(F)cc(Cl)cc1F", "system": "healthy young Japanese subjects, plasma", "conditions": "oral, 20 mg once daily, day 18, 14 days dosing", "quantity": "half-life range", "result": "14.5 to 44.8 h"}
{"Substance": "COc1cc2c3c(n(CCCN4CCOCC4)c(=O)c2cc1OC)-c1cc2c(cc1C3=O)OCO2", "system": "patients, plasma", "conditions": "intravenous infusion, 40 mg/m^2 daily over 1 h, cycle 1 day 5", "quantity": "AUC(0-24 h)", "result": "8120 ng·h/mL"}
{"Substance": "CCCS(=O)(=O)Nc1ccc(F)c(C(=O)c2c[nH]c3ncc(-c4ccc(Cl)cc4)cc23)c1F", "assay": "rapid equilibrium dialysis", "system": "100% human plasma", "conditions": "500 µM, 4 h", "quantity": "unbound fraction", "result": "1.02e-05 ± 1.7e-06"}
{"Substance": "Nc1nc2c(ncn2COCCO)c(=O)[nH]1", "system": "excised rabbit cornea", "conditions": "1 mM, 3 h, pH 7.4, with: L-arginine 5 mM", "quantity": "Papp", "result": "2.7 ± 0.17 ×10⁻⁶ cm/s"}
{"Substance": "CCCOc1ccc([C@H]2CNC(=O)N2c2ccc3[nH]cnc3c2)cc1", "system": "human volunteers fasted, plasma", "conditions": "oral solution, 100 mg single dose, day 1, geometric mean", "quantity": "AUC(0-12h)", "result": "680 ng·h/mL"}
{"Substance": "Cc1nc(-c2ccc(OCC(C)C)c(C#N)c2)sc1C(=O)O", "system": "adults with gout, plasma", "conditions": "oral, 40 mg, with: verinurad 5 mg", "quantity": "AUC(0-24)", "result": "2500 ng·h/mL"}
{"Substance": "O=c1[nH]cc(F)c(=O)[nH]1", "system": "patients, plasma", "conditions": "intravenous, 2400 mg/m2 maintenance, cycle 1, twice-daily cohort, no vorinostat", "quantity": "Css", "result": "347 ± 92 ng/mL"}
{"Substance": "Cc1ccc(C(=O)c2cc(O)c(O)c([N+](=O)[O-])c2)cc1", "system": "rat, Sprague Dawley, male", "conditions": "intraperitoneal, 15 mg/kg, 4 h", "quantity": "free plasma concentration", "result": "35 nM"}
{"Substance": "CCCC[C@@H]1NC(=O)[C@@H](NC(=O)[C@H](CCC(=O)O)NC(=O)CNC(=O)CN2CCN(CC(=O)O)CCN(CC(=O)O)CCN(CC(=O)O)CC2)CCCCNC(=O)C[C@@H](C(N)=O)NC(=O)[C@H](C(C)C)NC(=O)[C@@H]2CCCN2C(=O)[C@H](CCCNC(=N)N)NC(=O)CNC(=O)[C@H](Cc2c[nH]c3ccccc23)NC(=O)[C@H](CCCNC(=N)N)NC(=O)[C@@H](Cc2ccccc2)NC(=O)[C@H](Cc2c[nH]cn2)NC(=O)[C@H](CCC(=O)O)NC1=O [indium-111 labelled]", "system": "C57 mice, B16/F10 lung metastatic melanoma, stomach", "conditions": "intravenous, 0.037 MBq, 2 h", "quantity": "tissue uptake", "result": "0.13 ± 0.05 %ID/g"}
{"Substance": "O=C1Nc2ccc(C(=O)N3CCOCC3)cc2C(=O)CCc2ccccc21", "assay": "nephelometry", "system": "aqueous buffer", "conditions": "30 min, pH 6.5", "quantity": "kinetic solubility", "result": "> 100 µg/mL"}
{"Substance": "Cc1cc(Nc2cc3ncccc3c(N[C@@H]3C[C@H]4CC[C@@H](C3)N4CCC#N)n2)n[nH]1", "system": "rat, female, plasma", "conditions": "oral, 1000 mg/kg/day, last dosing day, 13-week repeat dose", "how to read": "mean", "quantity": "AUC(0-24 h)", "result": "1530 ng·h/mL"}
